Assay results collected from several papers.
Organism: Klebsiella pneumoniae

`CC1(C)[C@H](NC(=O)/C(=N\OCc2c(Cl)cccc2Cl)c2nsc(N)n2)C(=O)N1OS(=O)(=O)O` gave an MIC of over 64 µg/mL (agar dilution; 2146, NDM-1).
`CCCCCCCC(=O)N[C@@H](CCN)C(=O)N[C@H](C(=O)N[C@@H](CCN)C(=O)N[C@H]1CCNC(=O)[C@H]([C@@H](C)O)NC(=O)[C@H](CCN)NC(=O)[C@H](CCN)NC(=O)[C@H](Cc2ccccc2F)NC(=O)[C@@H](CC(C)C)NC(=O)[C@H](CCN)NC1=O)[C@@H](C)O` gave an MIC of 4 to 8 µg/mL (broth microdilution; ATCC 13883, colistin-susceptible).
With `CC1(C)[C@H](NC(=O)/C(=N\OC2(C(=O)O)CCCCC2)c2csc(N)n2)C(=O)N1OS(=O)(=O)O` the MIC was 8 µg/mL (agar dilution; 2146, NDM-1).
With `CC[C@H](C)[C@H](NC(=O)[C@H](Cc1c[nH]c2ccccc12)NC(=O)[C@H](CCCCN)NC(=O)[C@H](CC(C)C)NC(=O)[C@@H](NC(=O)[C@@H](NC(=O)CNC(=O)[C@H](CCCCN)NC(=O)[C@H](Cc1c[nH]cn1)NC(=O)[C@H](CCCCN)NC(=O)[C@H](Cc1c[nH]c2ccccc12)NC(=O)[C@H](C)NC(=O)[C@H](CC(C)C)NC(=O)[C@H](CO)NC(=O)[C@@H](NC(=O)[C@H](Cc1ccc(O)cc1)NC(=O)[C@H](CCCCN)NC(=O)[C@H](CCC(N)=O)NC(=O)CNC(=O)[C@H](CCCCN)NC(=O)[C@@H](NC(=O)[C@H](C)NC(=O)[C@H](CC(C)C)NC(=O)[C@H](Cc1ccccc1)NC(=O)[C@H](CCC(N)=O)NC(=O)[C@@H](NC(=O)[C@H](CC(C)C)NC(=O)[C@H](CCCCN)NC(=O)[C@H](CCSC)NC(=O)[C@H](Cc1ccccc1)NC(=O)[C@H](C)NC(=O)[C@H](C)NC(=O)[C@@H](N)CCSC)[C@@H](C)CC)[C@@H](C)O)C(C)C)[C@@H](C)O)[C@@H](C)CC)C(=O)N[C@@H](CC(N)=O)C(N)=O` the MIC was 20 µg/mL (broth microdilution; NCTC 5055; 24 h, 37 °C).
For `CC[C@H](C)[C@H](NC(=O)[C@H](CCCCN)NC(=O)[C@@H](NC(=O)[C@@H](NC(=O)[C@H](CC(C)C)NC(=O)[C@H](CCCNC(=N)N)NC(=O)[C@@H](NC(=O)[C@H](CC(C)C)NC(=O)[C@H](CCCNC(=N)N)NC(=O)CNC(=O)[C@H](Cc1ccccc1)NC(=O)[C@@H](N)CCCNC(=N)N)[C@@H](C)CC)[C@@H](C)CC)C(C)C)C(=O)N[C@@H](C)C(=O)N[C@@H](CCCNC(=N)N)C(=O)N[C@@H](CCCNC(=N)N)C(=O)N[C@@H](C)C(=O)N[C@@H](Cc1c[nH]cn1)C(=O)N[C@@H](CCCNC(=N)N)C(=O)N[C@@H](C)C(=O)N[C@@H](CCCNC(=N)N)C(=O)N[C@@H](CO)C(=O)N[C@@H](C)C(=O)N[C@H](C(=O)N[C@@H](CCCCN)C(=O)N[C@@H](C)C(=O)N[C@@H](C)C(=O)N[C@@H](CO)C(=O)N[C@@H](CC(N)=O)C(=O)N[C@H](C(=O)N[C@@H](C)C(=O)N[C@@H](C)C(=O)N[C@@H](CC(C)C)C(=O)N[C@@H](C)C(=O)N[C@@H](Cc1c[nH]cn1)C(=O)NCC(=O)N[C@@H](C)C(=O)O)C(C)C)C(C)C`, the MIC was 0.516 µM (bacterial growth, broth microdilution; cation-adjusted Mueller Hinton broth; 18 h, 37 °C).
`CC[C@H](C)[C@H](NC(=O)[C@@H](CCCNC(=N)N)NC(=O)[C@H](CCCNC(=N)N)NC(=O)[C@@H]1CCCN1C(=O)[C@@H]1CCCN1C(=O)[C@H](CCCNC(=N)N)NC(=O)[C@@H]1CCCN1C(=O)[C@H](CCCNC(=N)N)NC(=O)[C@@H]1CCCN1C(=O)[C@@H](NC(=O)[C@H](Cc1ccc(O)cc1)NC(=O)[C@@H]1CCCN1C(=O)[C@@H]1CCCN1C(=O)[C@H](CCCCN)NC(=O)[C@H](CC(=O)O)NC(=O)[C@@H](N)C(C)C)C(C)(C)C)C(=O)N[C@@H](Cc1ccc(O)cc1)C(=O)N[C@@H](CC(N)=O)C(=O)N[C@H](CCCNC(=N)N)C(N)=O` gave an MIC of 4 µg/mL (broth microdilution; DSM 681; 18 h, 37 °C, 25% MHB2).
For `O=C(c1ccccc1O)c1[nH]c(Cl)c(Cl)c1-n1c(C(=O)c2ccccc2O)cc(Cl)c1Cl`, the MIC was over 64 µM (microbial growth; ATCC700603).
With `CC[C@H](C)[C@H](NC(=O)[C@H](Cc1c[nH]c2ccccc12)NC(=O)[C@H](Cc1ccc(O)cc1)NC(=O)[C@H](CCCCN)NC(=O)[C@H](CC(C)C)NC(=O)[C@@H](N)CO)C(=O)N[C@@H](CCCNC(=N)N)C(=O)N[C@@H](Cc1ccc(O)cc1)C(=O)N[C@@H](CCCCN)C(=O)N[C@@H](CCCNC(=N)N)C(=O)N[C@@H](CCC(N)=O)C(=O)NCC(=O)N[C@@H](C)C(=O)N[C@@H](C)C(=O)N[C@@H](CCCNC(=N)N)C(=O)N[C@@H](Cc1ccccc1)C(N)=O` the MIC was 12.5 µM (broth dilution; ATCC 700603).
The MIC of `COc1ccc(O)c(/C=N/[C@@H]2CCCC[C@@H]2/N=C/c2c(O)ccc3ccc(OC)cc23)c1` is reported as over 40 µM (bacterial growth, broth microdilution; carbapenem-resistant).
The MIC of `CSCC[C@H](NC=O)C(=O)N[C@@H](CCCNC(=N)N)C(=O)N[C@H](C(=O)NCC(=O)N[C@@H](CC(N)=O)C(=O)N[C@@H](C)C(=O)N[C@@H](CC(N)=O)C(=O)NCC(=O)N1CCN(c2cc3c(cc2F)c(=O)c(C(=O)O)cn3C2CC2)CC1)[C@@H](C)O` is reported as 16 µM (broth dilution; ATCC 27736).

Some of these lines once more:
`CC1(C)[C@H](NC(=O)/C(=N\OCc2c(Cl)cccc2Cl)c2nsc(N)n2)C(=O)N1OS(=O)(=O)O` gave an MIC of over 64 µg/mL (agar dilution; 2146, NDM-1).
